Assay results collected from several papers.
Each line is one published result; not all experiments were run side by side. ± marks the error that the study gave.

| SMILES | host | matrix | route | dose | notes | with | AUC(0-t) |
| --- | --- | --- | --- | --- | --- | --- | --- |
| CCOC(=O)[C@@H]1Cc2c(cc([N+](=O)[O-])cc2[N+](=O)[O-])[C@H](O)[C@]12C(=O)Nc1ccc(Br)cc12 | rat | – | oral | 15 mg/kg | – | – | 12500 ng·h/mL |
| O=P1(NCCCl)NCCCO1 (centres unmarked) | rat | plasma | intravenous | 10 mg/kg | – | ketoconazole 20 mg/kg oral 50 min before | 518 ± 167 ng·h/mL |
| O=C(CN1CCN(c2cc3c(cc2F)c(=O)c(C(=O)O)cn3C2CC2)CC1)Nc1ccc(Cl)cc1 | BALB/c mice, female | plasma | iv | 3.75 mg/kg | – | – | 92400 ng·h/mL |
| CSCC[C@H](NC(=O)CNC(=O)[C@H](CC(=O)O)NC(=O)[C@@H](NC(=O)[C@@H](NC(=O)[C@@H](NC(=O)CNC(=O)[C@H](CCC(N)=O)NC(=O)[C@H](CCSC)NC(=O)[C@H](CC(=O)O)NC(=O)[C@H](C)NC(=O)[C@H](C)NC(=O)[C@@H](NC(=O)[C@H](CO)NC(=O)[C@@H](N)CC(C)C)[C@@H](C)O)C(C)C)C(C)C)[C@@H](C)O)C(=O)N[C@@H](C)C(=O)N[C@@H](CO)C(=O)NCC(=O)N[C@@H](CC(C)C)C(=O)N[C@@H](CC(=O)O)C(=O)N[C@@H](CCCCN)C(=O)N[C@@H](CC(=O)O)C(=O)N[C@@H](Cc1ccc(O)cc1)C(=O)N[C@@H](CC(C)C)C(=O)N[C@@H](CCCCN)C(=O)N1CCC[C@H]1C(=O)N[C@@H](CC(=O)O)C(=O)N[C@@H](CC(=O)O)C(=O)O | human | serum | intravenous | 0.83 mg/kg | patients, infusion | – | 240 ng·h/mL |
| COc1ccc(F)cc1S(=O)(=O)Nc1cnc2c(c1)C(=O)NCCO2 | C57BL/6J mice | plasma | oral | 0.3 mg/kg | – | – | 119 ± 27 ng‧h/mL |
| CC[C@H](C)C(=O)N1CCC(NC(=O)Nc2ccc(OC(F)(F)F)c(F)c2)CC1 | human | plasma | oral | 8 mg | single dose, fasted | – | 1310 ng·h/mL |
| C[C@@H]1CC[C@H]2[C@@H](C)CO[C@@H]3O[C@@]4(C)CC[C@@H]1[C@]32OO4 | male Sprague-Dawley rat | plasma | intravenous | 5 mg/kg | – | – | 583 ng·h/mL |
| O=c1cc(-c2ccccc2)oc2c(Br)c(O)c(O)c(O)c12 | C57BL/6 mouse | plasma | oral | 250 mg/kg | single dose | – | 50900 ng·h/mL |

Excerpt of the above:
| SMILES | host | matrix | route | dose | notes | with | AUC(0-t) |
| --- | --- | --- | --- | --- | --- | --- | --- |
| COc1ccc(F)cc1S(=O)(=O)Nc1cnc2c(c1)C(=O)NCCO2 | C57BL/6J mice | plasma | oral | 0.3 mg/kg | – | – | 119 ± 27 ng‧h/mL |
